Assay results of several laboratories.
Compare with care: the assays were run in different laboratories. ± marks the error that the study gave.

With `NS(=O)(=O)OC[C@@H]1C[C@@H](n2ccc3c(N[C@H]4CCc5ccccc54)ncnc32)C[C@@H]1O` the Cmax was 51 ng/mL (human; iv, 8 mg/m^2, day 8, geometric LS mean, together with: fluconazole).
The Cmax of `CN(Cc1cnc2nc(N)nc(N)c2n1)c1ccc(C(=O)N[C@@H](CCC(=O)O)C(=O)O)cc1` is reported as 140 ng/mL (human, plasma; oral, dose not given, day 8, mean, together with: isavuconazole co-administration).
With `Cc1nc(-c2ccc(OCC(C)C)c(C#N)c2)sc1C(=O)O` the Cmax was 695 ng/mL (human, plasma; oral, 40 mg, together with: verinurad 15 mg).
`CN[C@@H]1COc2c(S(=O)(=O)NC(=O)Nc3c4c(cc5c3CCC5)CCC4)cnn2C1` gave a Cmax of 27600 ng/mL (human; oral, 600 mg, fasted, geometric LS mean).
`O=C(/C=C/c1cccc(S(=O)(=O)Nc2ccccc2)c1)NO` gave a Cmax of 25000 ng/mL (human severe liver dysfunction, plasma; intravenous, 400 mg/m^2, 30 min infusion, cycle 1 day -7).
The Cmax of `C=C(C)[C@@H]1CC[C@]2(NCCN3CCS(=O)(=O)CC3)CC[C@]3(C)[C@H](CC[C@@H]4[C@@]5(C)CC=C(C6=CC[C@@](CF)(C(=O)O)CC6)C(C)(C)[C@@H]5CC[C@]43C)[C@@H]12` is reported as 1160 ng/mL (healthy human volunteers, plasma; oral, 200 mg, tablet, high-fat state, mean).
With `CCCOc1ccc(S(=O)(=O)NCCC2CCCN2C)cc1-c1nc2c(CCC)nn(C)c2c(=O)[nH]1` (stereo not drawn) the Cmax was 596 ± 147 ng/mL (healthy male humans, plasma; oral, 200 mg, together with: dapoxetine 60 mg).
For `Cc1nc2c(F)cc(-c3nc(Nc4ccc(CN5CCNCC5)cn4)ncc3F)cc2n1C(C)C`, the Cmax was 26.8 ng/mL (human patients, plasma; oral, 150 mg, single dose, geometric mean).
The Cmax of `Cc1ccc(NC(=O)c2ccc(CN3CCN(C)CC3)cc2)cc1Nc1nccc(-c2cncc(-c3oncc3C)c2)n1` is reported as 2750 ng/mL (older healthy human adults, plasma; oral, 75.0 mg single dose, fed, mean).
The Cmax of `COc1cccc(-c2ccc(NC(=O)C3=C(C(=O)O)CCC3)c(F)c2)c1` is reported as 10900 ng/mL (healthy male humans, plasma; oral, 40 mg once daily, day 13, geometric mean).
The Cmax of `O=C(c1cc(Cc2n[nH]c(=O)c3ccccc23)ccc1F)N1CCN(C(=O)C2CC2)CC1` is reported as 5200 ± 2800 ng/mL (human patients, plasma; oral, 200 mg twice daily, day 2, together with: pegylated liposomal doxorubicin).
`CC(C)(C)OC[C@@H]1C(=O)NCCN1C(=O)C[C@H](N)Cc1cc(F)c(F)cc1F` gave a Cmax of 11.5 ± 3.2 ng/mL (human; 10 mg once daily, steady state, day 10).
`COc1ccc(-n2nc(C(N)=O)c3c2C(=O)N(c2ccc(N4CCCCC4=O)cc2)CC3)cc1` gave a Cmax of 157 ng/mL (human male and female, plasma; oral, 10 mg, geometric least squares mean, together with: tacrolimus 5 mg daily for 3 days).
The Cmax of `COc1ccnc(C[S+]([O-])c2nc3ccc(OC(F)F)cc3[nH]2)c1OC` (stereo not drawn) is reported as 4570 ± 2870 ng/mL (human, CYP2C19 normal metabolizers, plasma; oral, 40 mg/day, day 1).
`Cc1nc(-c2ccc(OCC(C)C)c(C#N)c2)sc1C(=O)O` has a Cmax of 1660 ng/mL (human male, plasma; oral, 80 mg once daily, day 7 or 21, geometric mean).
The Cmax of `O=C(CCCCCCC(=O)Nc1ccccc1)NO` is reported as 1620 nM (human, serum; oral, 500 mg three times daily, 3 days, median, together with: idarubicin).
The Cmax of `O=C(c1cccnc1-c1ccncc1)N1CCC(O)(Cc2ccccc2)CC1` is reported as 3100 ng/mL (healthy human, plasma; oral, 300 mg once daily, day 14, arithmetic mean).
With `O=C(c1ccc(OCCN2CCCCC2)cc1)c1c(-c2ccc(O)cc2)sc2cc(O[C@@H]3O[C@H](C(=O)O)[C@@H](O)[C@H](O)[C@H]3O)ccc12` the Cmax was 9 nM (human, plasma; oral, 60 mg raloxifene, chronic green tea).
`COc1ccc2nc([S@@+]([O-])Cc3ncc(C)c(OC)c3C)[nH]c2c1` has a Cmax of 2800 ± 2230 ng/mL (human, CYP2C19 rapid metabolizers, plasma; oral, 40 mg/day, day 5).
For `CC(C)n1nc(-c2ccc3oc(N)nc3c2)c2c(N)ncnc21`, the Cmax was 293 ng/mL (human, plasma; oral, 30 mg once weekly, cycle 1 day 1).
`CC(C)(Sc1ccncc1-c1ccc(C#N)c2ccccc12)C(=O)O` gave a Cmax of 15.5 ng/mL (human, plasma; oral, 10 mg, together with: febuxostat 40 mg).
`O=C1Nc2ccc(Cl)cc2[C@@](C#CC2CC2)(C(F)(F)F)O1` has a Cmax of 660 ± 400 ng/mL (healthy human, serum; oral, 400 mg single dose).
`O=C1NC(=O)[C@@H](c2cn3c4c(cccc24)CCC3)[C@@H]1c1c[nH]c2ccccc12` gave a Cmax of 1430 ng/mL (human, plasma; oral, 240 mg, cycle 1 day 5, steady state, together with: topotecan intravenous).
For `CC(C)NC[C@@H](C(=O)N1CCN(c2ncnc3c2[C@H](C)C[C@H]3O)CC1)c1ccc(Cl)cc1`, the Cmax was 97.1 ng/mL (human, Moderate hepatic function, plasma; oral, 100 mg single dose, NCI classification, geometric mean).
The Cmax of `O=C(c1ccc(F)c(F)c1Nc1ccc(I)cc1F)N1CC(O)([C@@H]2CCCCN2)C1` is reported as 649 ng/mL (human, plasma; oral, 100 mg, steady state).
For `COc1cc2nccc(Oc3ccc(NC(=O)NC4CC4)c(Cl)c3)c2cc1C(N)=O`, the Cmax was 45.1 ng/mL (human, plasma; oral, 5 mg, arithmetic mean, together with: placebo).
`CNCc1ccc(-c2[nH]c3cc(F)cc4c3c2CCNC4=O)cc1` gave a Cmax of 863 ng/mL (human cancer patients, plasma; intravenous, 18 mg/m2, day 4, together with: temozolomide 200).
`CN1CC[C@H](c2c(O)cc(O)c3c(=O)cc(-c4ccccc4Cl)oc23)[C@H](O)C1` gave a Cmax of 1800 ± 400 nM (human advanced solid tumours, plasma; intravenous, 50 flavopiridol, together with: oxaliplatin 85 + leucovorin/5-FU).
For `Cc1ccc(C(=O)NC2CC2)cc1-n1ncc(C(=O)c2cccc(C#N)c2)c1N`, the Cmax was 116 ng/mL (human, plasma; oral, 14 mg, single dose alone, geometric mean).
With `CC1(C)CCC(CN2CCN(c3ccc(C(=O)NS(=O)(=O)c4ccc(NCC5CCOCC5)c([N+](=O)[O-])c4)c(Oc4cnc5[nH]ccc5c4)c3)CC2)=C(c2ccc(Cl)cc2)C1` the Cmax was 1110 ng/mL (human, plasma; oral, 400 mg, steady state, together with: idasanutlin 200 mg).
For `O=C(O)CNC(=O)c1c(O)c2ccccc2n(OCC2CC2)c1=O`, the Cmax was 1590 ± 682 ng/mL (LC-MS/MS; human, blood; oral, 150 mg multiple doses).
The Cmax of `CS(=O)(=O)n1cc2c(n1)CN([C@H]1CO[C@H](c3cc(F)ccc3F)[C@@H](N)C1)C2` is reported as 988 nM (healthy male human, plasma; oral, 50 mg once weekly, day 1, fasted, geometric mean).
For `CCCCCCCCCCCCCCC[C@H](O)[C@@H](N)CO`, the Cmax was 25600 nM (human, phase I, plasma; intravenous, 930 mg/m^2, day 1, monotherapy).
With `O=CC[C@@H](O)[C@H](O)[C@H](O)CO` the Cmax was 224000 ± 12600 nM (HPLC-fluorescence; human patients, plasma; oral, 30 mg/kg/day, cycle 2).
The Cmax of `COC(=O)c1ccc2c(c1)NC(=O)/C2=C(\Nc1ccc(N(C)C(=O)CN2CCN(C)CC2)cc1)c1ccccc1` is reported as 7.8 ng/mL (healthy human controls matched to Child-Pugh B, plasma; oral, 100 mg single dose, fed, adjusted geometric mean).
`C[C@@H]1CN(Cc2ncccn2)C[C@H]1c1nc2c(cnn2C2CCOCC2)c(=O)[nH]1` gave a Cmax of 59.5 ng/mL (human; oral, 5 mg twice daily, day 7).
With `CCOc1ccc(Cc2cc([C@@H]3S[C@H](CO)[C@@H](O)[C@H](O)[C@H]3O)c(OC)cc2C)cc1` the Cmax was 214 ± 52 ng/mL (human, plasma; oral, 5 mg/day, day 1, multiple dose before breakfast).
The Cmax of `Cc1cc(-c2nnc(N)nc2-c2ccc(F)cc2)cc(Cl)n1` is reported as 656 ng/mL (human patients, plasma; oral, 75 mg nanosuspension, single dose, arithmetic mean).
With `C=CC(=O)Nc1cc(Nc2ncc(C(=O)OC(C)C)c(-c3cn(C)c4ccccc34)n2)c(OC)cc1N(C)CCN(C)C` the Cmax was 3.2 ng/mL (human, fasted; oral, 20 mg single dose, geometric mean).
`N[C@@H](Cc1ccc(O)c(O)c1)C(=O)O` has a Cmax of 1210 ± 449 ng/mL (human, plasma; oral, 100 mg, mean, recalculated per dose, together with: decarboxylase inhibitor).
For `CN(C)Cc1c(C(=O)NCCOc2ccc(C(=O)NO)cc2)oc2ccccc12`, the Cmax was 94.9 ± 11.4 ng/mL (human, plasma; oral, 40 mg, single dose on day -3).
`CCCNS(=O)(=O)Nc1ncnc(OCCOc2ncc(Br)cn2)c1-c1ccc(Br)cc1` has a Cmax of 194 ng/mL (human; oral, 10 mg, fixed-dose combination, fasted, geometric mean, together with: tadalafil 40 mg).
`CCCCC1(CCCC)CN(c2ccccc2)c2cc(SC)c(OCC(=O)N[C@@H](C(=O)NCC(=O)O)c3ccccc3)cc2S(=O)(=O)C1` gave a Cmax of 3.17 ng/mL (LC-MS/MS; human, plasma; oral, 20 mg, single dose, fasted).
For `CN(Cc1nc2c(N)nc(N)nc2[nH]c1=O)c1ccc(C(=O)N[C@@H](CCC(=O)O)C(=O)O)cc1`, the Cmax was 64.7 ng/mL (human, plasma; oral, 15 mg methotrexate, day 1, alone, arithmetic mean).
`CC(C)c1nc(N(C)S(C)(=O)=O)nc(-c2ccc(F)cc2)c1/C=C/[C@@H](O)C[C@@H](O)CC(=O)O` gave a Cmax of 5.04 ng/mL (human, plasma; oral, 20 mg, alone, geometric LS mean).
For `CC#CC(=O)N1CC[C@@H](n2c(=O)n(-c3ccc(Oc4ccccc4)cc3)c3c(N)ncnc32)C1`, the Cmax was 611 ng/mL (human, plasma; oral, 160 mg once daily, cycle 1 day 1, fasting).
`NC(=O)N1CCC(CC(=O)N2CCC([C@H]3c4ncc(Br)cc4CCc4cc(Cl)cc(Br)c43)CC2)CC1` gave a Cmax of 645 ng/mL (human, plasma; oral, 100 mg twice daily, cycle 2 day 15, together with: gemcitabine 1000 mg/m2).
For `Nc1ccc(-c2nc([C@H]3CCc4cc(-c5cc(Cl)ccc5-n5cnnn5)cc(=O)n43)c(F)[nH]2)c(F)n1`, the Cmax was 1060 ng/mL (human, plasma; oral, 150 mg once daily, fed, day 1).
`CO[C@H]1C[C@@H]2CC[C@@H](C)[C@@](O)(O2)C(=O)C(=O)N2CCCC[C@H]2C(=O)O[C@H]([C@H](C)C[C@@H]2CC[C@@H](O)[C@H](OC)C2)CC(=O)[C@H](C)/C=C(\C)[C@@H](O)[C@@H](OC)C(=O)[C@H](C)C[C@H](C)/C=C/C=C/C=C/1C` has a Cmax of 45.6 ng/mL (human, whole blood; oral, 20 mg, without grapefruit juice).
`O=C(NC[C@H](O)CO)c1ccncc1Nc1ccc(I)cc1F` gave a Cmax of 196 ng/mL (human; oral, 45 mg, single dose alone).
`COc1cc(F)c(F)c(Nc2ccc(I)cc2F)c1NS(=O)(=O)C1(C[C@H](O)CO)CC1` gave a Cmax of 1220 ng/mL (human patients, plasma; oral, 50 mg twice daily, cycle 1 day 14).
The Cmax of `CC(C)(C(=O)NCC(F)(F)C(F)(F)F)C(=O)N[C@@H]1C(=O)Nc2ccccc2-c2ccccc21` is reported as 241 ng/mL (human, plasma; oral, 20 mg, day 1).
`O=C(Cc1cccc(OC(F)(F)F)c1)Nc1ccc(CCCCc2nnc(NC(=O)Cc3ccccn3)s2)nn1` has a Cmax of 1060 ng/mL (human patients, plasma; oral, 800 mg three times daily fasted, cycle 1 day 15 steady state).
`Cc1cc(C)c2c(c1)[C@@H](N(Cc1cc(C(F)(F)F)cc(C(F)(F)F)c1)c1nnn(C)n1)CCCN2C[C@H]1CC[C@H](C(=O)O)CC1` gave a Cmax of 41.6 ng/mL (human, plasma; oral, 10 mg once daily, steady state, geometric mean).
